# Results pooled from the literature.
# Compare with care: the assays were run in different laboratories. “And” joins repeats or separate records; there may be more than shown. ± marks the error that the study gave.
SMILES,test,test system,conditions,how to read,endpoint,value
CCn1c(=O)c(-c2cc(NC(=O)Nc3ccccc3)c(F)cc2Br)cc2cnc(NC)cc21,,human plasma,"150 ng/mL, 1 weeks, 4 °C, low QC",,mid-term stability accuracy,4.27%
Cc1cc(C(=O)NC(C)(C)COc2cccc3c2C(N)=NS(=O)(=O)N3)cc(C)n1,LC-MS metabolite profiling,"Sprague-Dawley rat, both sexes, plasma","oral, 100 mg/kg of parent drug, 8 (unit not given)",higher = more metabolite,plasma peak area,88400 a.u.
CN(C)C(=N)N=C(N)N,"item: respiratory, thoracic, mediastinal disorders",healthy men,"oral, dose not given, 8 days, treatment-emergent, crossover trial",,subjects with adverse event,4.5%
CC(=O)N(C)[C@H]1CCN(C(=O)c2cnc3c(c2)C[C@](C)(c2ccc(F)cc2)N3)C1,item: abdominal discomfort,human,"oral, 15 mg once daily",,adverse event duration,1 days
CC(C)NCC(O)c1ccc(NS(C)(=O)=O)cc1 (racemic),,"male Hartley guinea pigs, anaesthetized","intravenous, 3 mg/kg group, baseline before infusion",,mean blood pressure,34 ± 0.2 mmHg
N#Cc1ccc2c(c1)[C@H]1CCCN(C(=O)c3ccc4[nH]cnc4c3)[C@H]1C2,,human,"240 mg, day 7",,maximum ACTH level,15.6 pmol/L
O=C(O)CCC(=O)O.[2H]C([2H])([2H])Oc1cc(C)c2[nH]ccc2c1CN1CC[C@@H](C2CC2)C[C@H]1c1ccc(C(=O)O)cc1,multiple ascending dose,healthy Chinese subjects,100 mg twice daily,,subjects with proteinuria TEAE,37.5%
CSc1nc2nnnc(O)c2s1,,sheep erythrocytes,"1 h, pH 7.5",,maximum haemolysis,6.01%
CCCCC1=NC2(CCCC2)C(=O)N1Cc1ccc(-c2ccccc2S(=O)(=O)Nc2noc(C)c2C)c(COCC)c1,,"healthy adult volunteers, plasma","oral, 100 mg, single dose, fed, crushed tablet",,AUC(0-inf),20 µg·h/mL
CC(C)c1nc(N(C)S(C)(=O)=O)nc(-c2ccc(F)cc2)c1/C=C/[C@@H](O)C[C@@H](O)CC(=O)O,,"Wistar albino rat, both sexes, plasma","oral, 20 mg/kg, 48 h",,plasma concentration,0.0608 µg/mL
Cc1cc(NC2CCN(C(=O)OC3CCN(C(=O)/C=C/CN(C)C)C3)CC2)n2ncc(C(C)C)c2n1 (stereo not drawn),"CTCAE v4.0, item: Fatigue",patients with advanced solid tumours,"oral, dose not given, all schedules, grade 3 or higher",,patients with TEAE,2%
Cc1ccc([C@@H]2O[C@H](CO)[C@@H](O)[C@H](O)[C@H]2O)cc1Cc1ccc(-c2ccc(F)cc2)s1,,Japanese type 2 diabetes patients,"200 mg, day 6, 24 h urine collection",baseline: baseline,urinary chloride excretion change,-4.5 mEq
CCO[C@H]1CCN(Cc2c(OC)cc(C)c3[nH]ccc23)[C@H](c2ccc(C(=O)O)cc2)C1,,"PNH patients, active haemolysis","oral, 200 mg, treatment",,incidence free thyroxine increase,0%
Cc1cc(C#N)cc(C)c1Oc1nc(Nc2ccc(C#N)cc2)nc(N)c1Br,solvent-shift UV,FaSSIF with 0.05% HPMC,,,maximum supersaturated concentration,75 µg/mL
COc1cc2nc(c1)CNCc1cc(OC)cc(n1)CNC2,potentiometry,,,,sum of log protonation constants,15
COc1cc2c3c(n(CCCN4CCOCC4)c(=O)c2cc1OC)-c1cc2c(cc1C3=O)OCO2,,"beagle dog, male, plasma","intravenous infusion, 50 mg/m^2, 1 h infusion, vehicle 2",,Cmax,0.28 ± 0.024 µg/mL
CCc1c(-c2ccccc2)c(-c2ccccc2)nn1-c1ccccc1-c1cccc(OCC(=O)O)c1,,Sprague-Dawley rat,"oral, dose not given",,AUMC(0-t),13500 h²·ng/mL and 17200 h²·ng/mL and 17300 h²·ng/mL
CNCCOC12CC3(C)CC(C)(CC(Cn4ncc(-c5ccc(N6CCc7cccc(C(=O)Nc8nc9ccccc9s8)c7C6)nc5C(=O)O)c4C)(C3)C1)C2,,"beagle dog, male, anaesthetised","intravenous bolus, 0.03 mg/kg, 30 min",baseline: baseline,QTcV interval change,15 ms
COc1ncc(-c2nc3c(n2C(C)C)[C@H](c2ccc(Cl)cc2)N(c2cc(Cl)cn(C)c2=O)C3=O)c(OC)n1,,"human patients, plasma","oral, 50 mg, high-dose arm, cycle 2 day 1",,median half-life,15 h
CC(C)(C(=O)N1CCOc2c(C#N)cncc2C1)C(F)F,item: vessel puncture site haemorrhage,"human, both sexes","oral, 10 mg once daily, 14 days, multiple ascending dose",,subjects with TEAE,0%
C=CCn1c(=O)c2cnc(Nc3ccc(N4CCN(C)CC4)cc3)nc2n1-c1cccc(C(C)(C)O)n1,,human,"oral, 300 mg once daily, monotherapy lead-in, -5 days",geometric mean,AUC(0-10),9.15 µM·h
CC[C@H](C)[C@H](NC(=O)CN)C(=O)N[C@@H](C)C(=O)N[C@@H](CC(=O)O)C(=O)N[C@@H](C)C(=O)N[C@H](C(=O)N[C@@H](CCCCN)C(=O)N[C@@H](CCCCN)C(=O)N[C@H](C(=O)N[C@@H](C)C(=O)N[C@@H](CCCCN)C(=O)N[C@@H](C)C(=O)N[C@@H](CC(C)C)C(=O)NCC(N)=O)[C@@H](C)CC)[C@@H](C)CC,circular dichroism at 222 nm,10 mM SDS,"100 µM, pH 4.0",,mean residue ellipticity,-17100 deg cm2/dmol
CC(C)(C)c1ccc(C(O)CCCN2CCC(C(O)(c3ccccc3)c3ccccc3)CC2)cc1 (stereo not drawn),,"male Hartley guinea pigs, anaesthetized","intravenous, 1 mg/kg group, baseline before infusion",,mean blood pressure,38 ± 0.2 mmHg
O=C(COc1ccc(Cl)cc1)NC12CC(c3nnc([C@H]4C[C@@H](OC(F)(F)F)C4)o3)(C1)C2,catheter site pain,"human, both sexes","oral, dose not given, single ascending dose, fasted, all doses",baseline: subjects,treatment-emergent adverse events,5.6%
Cc1cc(-c2nccc3c2ccn3CC(=O)Nc2ccc(-c3cnccn3)cn2)ccn1,,healthy human volunteers,"oral, 40 mg single dose, single ascending dose",,upper abdominal pain incidence,16.7%
CCC(CC)C(=O)Oc1cccc(C(O)CCN)c1.O=CO (stereo not drawn),scotopic ERG,BALB/cJ mice,"intraperitoneal, 10 mg/kg, 4 h dark adaptation, together with: 10,000 lx photobleach, 10 min",,ERG a-wave amplitude,72 µV and 30 µV and 34 µV and 76 µV and 48 µV and 31 µV
Oc1ccc(Cl)c2cccnc12,,,,,pKa (acidic),9.1
C=CC(=O)N(C)CCOc1c(N)ncnc1-c1cc(F)cc(NC(=O)c2ccc(C3CC3)cc2F)c1C,,"human, whole blood","oral, 60 mg, single ascending dose",,mean residence time,1.76 h
C=CC(=O)Nc1cc(Nc2nccc(-c3cn(C)c4ccccc34)n2)c(OC)cc1N(C)CCN(C)C,storage stability,human plasma,"2 h, on ice, LLOQ level",,recovery,104%
CCn1c(=O)c(-c2cc(NC(=O)Nc3ccccc3)c(F)cc2Br)cc2cnc(NC)cc21,item: investigations,"healthy human, matched to mild hepatic impairment","oral, 50 mg single dose",,participants with grade ≥ 3 TEAE,12.5%
Nc1nc2c(nc([N+](=O)[O-])n2[C@@H]2O[C@H](CO)[C@@H](O)[C@H]2O)c(=O)[nH]1,"depurination, RP-HPLC",citrate-phosphate buffer 0.5 mM,"110 min, pH 2, 37 °C",,nucleoside remaining fraction,0.8
CC(C)n1c(Nc2cccnc2)nc2cnc(Nc3ccc(N4CCN(C)CC4)cc3)nc21,item: Rash,healthy male subjects,"oral, 150 mg, together with: rifampin",,adverse event incidence,0%
CCOc1c([C@H](C)n2nc(C)c3c(N)ncnc32)cc(Cl)c(F)c1[C@@H]1CNC(=O)C1,,"patients, monotherapy","oral, 45 mg once daily, cycle 1 day 1",,Tmax median,1 h
CC(F)(F)c1cc(F)ccc1-c1sc2cc(O)ccc2c1Oc1ccc(/C=C/C(=O)O)cc1,,"human, serum","oral, 900 mg once daily, cycle 1 day 28, fasted, median",,Tlast,23.3 h
O=C(O)CNC(=O)c1nc(Cl)c2ccccc2c1O,,,,,pKa (basic),< 2
CC(C)(C)c1ccc(O)c(CN(Cc2cc(C(C)(C)C)ccc2O)C2CCC(NC(N)=O)CC2)c1 (stereo not drawn),,mouse brain,"5 ng/g, 3 months, -20 °C, long-term storage",,recovery,99.8 ± 1.14%
CC(C)NCC(O)COc1cccc2ccccc12 (stereo not drawn),,"male Hartley guinea pigs, anaesthetized","intravenous, 1 mg/kg group, baseline before infusion",,mean blood pressure,37 ± 0.1 mmHg
COc1cc2[nH]c(C)c(-c3ccc(C)cc3C)c(=O)c2cc1Cl,,PAMPA,pH 7.4,,Papp,5490 nm/s
O=C(Nc1nc2cccc(-c3ccc(CN4CCS(=O)(=O)CC4)cc3)n2n1)C1CC1,item: ankle fracture,human rheumatoid arthritis patients,"oral, 75 mg once daily, 4 weeks, regardless of relatedness",,treatment-emergent adverse events,0%
O=C(CCCCCCC(=O)Nc1ccc(CC[18F])cc1)NO,,"athymic nu/nu male mice, LNCaP xenograft, blood","intravenous, 2 h",,tissue uptake,0.7 ± 0.1 %ID/g
COCc1cc(C(=O)Nc2cc([C@H]3CC[C@@H](OC(=O)NC(C)C)C3)[nH]n2)n(C)n1,,"OVCAR-3 xenograft, NOD/SCID gamma mice, plasma","oral, 75 twice daily, tumour growth inhibition study",,unbound C24h,85 nM
Cc1ccc(Sc2ccccc2N2CCNCC2)c(C)c1,item: blood in urine,healthy adult men,"oral, 5 mg daily, 12 days",,participants with TEAE,16.7%
CNC(=O)c1ccc(-c2cnc3ncc(Cc4ccc5ncccc5c4)n3n2)cc1F,"CTCAE v4.0, any causality",human hepatocellular carcinoma patients,"oral, 600 mg twice daily, expansion cohort at RP2D",,upper abdominal pain incidence (all grades),0%
CCCCCN1C[C@H](O)[C@@H](O)[C@H](O)[C@@H]1CO,,Hexb-/- mouse,30 mg/kg/day,,brain/plasma ratio,0.15
O=C(N/N=C/c1ccccc1O)c1ccncc1,,ADS buffer,"57 µM, 12 h, 5 °C, post-preparative, autosampler",,stability,99.4%
COc1cc2c(Nc3ccc(Cl)c(Cl)c3F)ncnc2cc1OC[C@@H]1C[C@@H]2CN(C)C[C@@H]2C1,,"FVB wild-type mice, both sexes, plasma","intraperitoneal infusion (osmotic pump), dose not given, 48 h",,unbound plasma concentration,0.0269 µg/mL
O=C(N[C@H](Cc1c[nH]c2ccccc12)C(=O)Nc1ccncc1)c1ccc(-c2ccc(F)c(Cl)c2)cc1F,,"Swiss Webster mouse, female, heart","oral, 50 mg/kg, 8 h, 20% HPβCD vehicle",,concentration,9250 nM
COc1cc2c(CCNC(C)=O)c[nH]c2cc1O,"sulfation, substrate",pooled human kidney cytosol,"50 µM, 30 min, together with: 50 mM NaF",,specific activity,10.3 ± 0.33 pmol/min/mg
Cc1cc(-c2nnc(N)nc2-c2ccc(F)cc2)cc(Cl)n1,item: rash,IO-naive other solid tumour patients,"oral, 100 mg once daily, treatment-related, grade 2",,patients with immune-mediated AE,0%
O=[N+]([O-])c1cnc2ccc(Cl)cc2c1O,,sheep erythrocytes,"1 h, pH 7.5",,maximum haemolysis,2.4%
COC(=O)Nc1cc(C(=O)Nc2ccccc2)cc2ccc(C(=N)N)cc12,,,,,pKa,10.8
CCN1/C(=C/C(C)=O)Sc2ccc(F)cc21,,cynomolgus monkey,"oral, 100 mg/kg, 0.5 h post-dose",,diastolic blood pressure,78 ± 4 mmHg
O=C(Nc1ccc(OC(F)(F)Cl)cc1)c1cnc(N2CC[C@@H](O)C2)c(-c2ccn[nH]2)c1,"per patient, item: hemoglobin decrease",human patients,"oral, dose not given",,grade ≥3 event rate,0.7%
CN(C(=O)n1cnc(-c2ccc[n+]([O-])c2)c1)[C@H]1CC[C@H](O)CC1,,"cynomolgus monkeys, plasma","oral, 1.0 mg/kg",,AUC(0-t),0.0673 µg·h/mL
CC(C)c1ncc(C(=O)N2CCOC3(CCN(Cc4ccc(F)c(CCNC[C@H](O)c5ccc(O)c6[nH]c(=O)sc56)c4)CC3)C2)s1,,"healthy human volunteers, plasma","inhaled, dose not given",,Clast,0.006 nM
COc1ccc(C[C@@H](C)[C@@H](C)Cc2ccc(OC)c(OC)c2)cc1OC,,"beagle dog male, plasma","oral, 1000 mg/kg/day, day 28, median",,Tmax,1 h
O=C1Cc2cc(CCN3CCN(c4nsc5ccccc45)CC3)c(Cl)cc2N1,,"male Hartley guinea pigs, anaesthetized","intravenous, 1 mg/kg group, baseline before infusion",,mean blood pressure,39 ± 0.3 mmHg

# For quick reference, copied from above:
SMILES,test,test system,conditions,how to read,endpoint,value
CC[C@H](C)[C@H](NC(=O)CN)C(=O)N[C@@H](C)C(=O)N[C@@H](CC(=O)O)C(=O)N[C@@H](C)C(=O)N[C@H](C(=O)N[C@@H](CCCCN)C(=O)N[C@@H](CCCCN)C(=O)N[C@H](C(=O)N[C@@H](C)C(=O)N[C@@H](CCCCN)C(=O)N[C@@H](C)C(=O)N[C@@H](CC(C)C)C(=O)NCC(N)=O)[C@@H](C)CC)[C@@H](C)CC,circular dichroism at 222 nm,10 mM SDS,"100 µM, pH 4.0",,mean residue ellipticity,-17100 deg cm2/dmol
O=C(CCCCCCC(=O)Nc1ccc(CC[18F])cc1)NO,,"athymic nu/nu male mice, LNCaP xenograft, blood","intravenous, 2 h",,tissue uptake,0.7 ± 0.1 %ID/g
CCn1c(=O)c(-c2cc(NC(=O)Nc3ccccc3)c(F)cc2Br)cc2cnc(NC)cc21,item: investigations,"healthy human, matched to mild hepatic impairment","oral, 50 mg single dose",,participants with grade ≥ 3 TEAE,12.5%
O=[N+]([O-])c1cnc2ccc(Cl)cc2c1O,,sheep erythrocytes,"1 h, pH 7.5",,maximum haemolysis,2.4%
Cc1cc(C(=O)NC(C)(C)COc2cccc3c2C(N)=NS(=O)(=O)N3)cc(C)n1,LC-MS metabolite profiling,"Sprague-Dawley rat, both sexes, plasma","oral, 100 mg/kg of parent drug, 8 (unit not given)",higher = more metabolite,plasma peak area,88400 a.u.
COc1ncc(-c2nc3c(n2C(C)C)[C@H](c2ccc(Cl)cc2)N(c2cc(Cl)cn(C)c2=O)C3=O)c(OC)n1,,"human patients, plasma","oral, 50 mg, high-dose arm, cycle 2 day 1",,median half-life,15 h
CC(=O)N(C)[C@H]1CCN(C(=O)c2cnc3c(c2)C[C@](C)(c2ccc(F)cc2)N3)C1,item: abdominal discomfort,human,"oral, 15 mg once daily",,adverse event duration,1 days
N#Cc1ccc2c(c1)[C@H]1CCCN(C(=O)c3ccc4[nH]cnc4c3)[C@H]1C2,,human,"240 mg, day 7",,maximum ACTH level,15.6 pmol/L
